Results gathered from unrelated publications.
Organism: Escherichia coli

| SMILES | read-out | technique | strain | time | temperature | notes | MIC |
| --- | --- | --- | --- | --- | --- | --- | --- |
| CC(C)Oc1c(NC(=O)c2ccc(NC(=O)[C@H](CC(N)=O)NC(=O)c3ccc(/N=N/c4ccccc4)cc3)cc2)ccc(C(=O)N/N=C/c2ccc(C(=O)O)cc2)c1O | – | – | BW25113 | – | – | dark ground state | 0.4 µg/mL |
| CC[C@H](C)[C@H](NC(=O)[C@@H](CCCNC(=N)N)NC(=O)[C@H](CCCNC(=N)N)NC(=O)[C@@H]1CCCN1C(=O)[C@@H]1CCCN1C(=O)[C@H](Cc1ccccc1)NC(=O)[C@@H]1CCCN1C(=O)[C@H](CCCNC(=N)N)NC(=O)[C@@H]1CCCN1C(=O)[C@H](CC(C)C)NC(=O)[C@H](Cc1ccc(O)cc1)NC(=O)[C@@H]1CCCN1C(=O)[C@@H]1CCCN1C(=O)[C@H](CCCCN)NC(=O)[C@H](CC(=O)O)NC(=O)[C@@H](N)C(C)C)C(=O)N[C@@H](Cc1ccc(O)cc1)C(=O)N[C@@H](CC(N)=O)C(=O)N[C@H](CCCNC(=N)N)C(N)=O | – | broth microdilution | BW25113 | 18 h | 37 °C | 25% MHB2 | 16 µg/mL |
| CC(=O)N[C@@H](CC(C)C)C(=O)N[C@H]1CSSC[C@@H](C(=O)N2CCC[C@H]2C(N)=O)NC(=O)[C@H]([C@@H](C)O)NC(=O)[C@H](C(C)C)NC(=O)[C@H]([C@@H](C)O)NC(=O)CNC(=O)[C@H](CCCCN)NC(=O)[C@H](Cc2ccccc2)NC(=O)[C@H](Cc2ccc(O)cc2)NC(=O)[C@H](CCCCN)NC(=O)[C@H](CCC(=O)O)NC(=O)[C@H](Cc2ccccc2)NC(=O)[C@H](CCCNC(=N)N)NC(=O)[C@H](CCCCN)NC(=O)[C@H](CC(C)C)NC(=O)[C@H](CC(=O)O)NC(=O)[C@@H]2CCCN2C(=O)[C@H](CCCCN)NC(=O)[C@H](C(C)C)NC(=O)[C@H](CCCCN)NC(=O)[C@H](CCCCN)NC(=O)[C@H]([C@@H](C)O)NC1=O | – | broth dilution | laboratory strain | 24 h | – | – | > 40 µM |
| CC[C@H](C)[C@H](NC(=O)[C@@H](NC(=O)[C@H](CCCCN)NC(=O)[C@H](CCC(N)=O)NC(=O)[C@@H](NC(=O)[C@H](Cc1c[nH]c2ccccc12)NC(=O)[C@H](CCCCN)NC(=O)[C@H](CCCCN)NC(=O)[C@H](CC(C)C)NC(=O)[C@H](CCCNC(=N)N)NC(=O)[C@H](Cc1ccccc1)NC(=O)[C@@H](N)C(C)C)[C@@H](C)CC)C(C)C)C(N)=O | – | – | – | 24 h | 37 °C | Mueller-Hinton broth, CaCl2 2.5 mM | 128 µM |
| Cc1ccnc(-c2cc(C(=O)NCCCCCC(=O)N[C@@H](CCCNC(=N)N)C(=O)N[C@@H](Cc3c[nH]c4ccccc34)C(=O)N[C@@H](CCCNC(=N)N)C(=O)N[C@@H](Cc3c[nH]c4ccccc34)C(=O)N[C@@H](CCCNC(=N)N)C(=O)N[C@@H](Cc3c[nH]c4ccccc34)C(N)=O)ccn2)c1 | – | – | ATCC BAA-196, resistant | 18 h | 37 °C | dark | 16 µM |
| CC[C@H](C)[C@H](NC(=O)[C@H](CCCCN)NC(=O)[C@H](CC(N)=O)NC(=O)CNC(=O)[C@@H](NC(=O)[C@H](C)NC(=O)[C@H](CCCNC(=N)N)NC(=O)[C@H](CC(C)C)NC(=O)[C@H](CCCCN)NC(=O)[C@H](CCCCN)NC(=O)[C@H](CCCCN)NC(=O)[C@H](C)NC(=O)[C@H](CCCCN)NC(=O)[C@@H]1CSSC[C@H](NC(=O)[C@H](CCCNC(=N)N)NC(=O)CN)C(=O)N[C@@H](CC(N)=O)C(=O)N[C@@H](CC(C)C)C(=O)N[C@@H](CC(C)C)C(=O)N1)C(C)C)C(=O)N[C@@H](CCCCN)C(=O)N[C@@H](CCC(=O)O)C(=O)N[C@H](C(=O)N[C@@H](CCCCN)C(=O)N[C@@H](CC(N)=O)C(=O)N[C@H](C(=O)N[C@H](C(=O)N[C@@H](Cc1ccccc1)C(=O)N[C@@H](CC(N)=O)C(=O)N[C@@H](CCCNC(=N)N)C(=O)O)C(C)C)C(C)C)[C@@H](C)CC | – | broth dilution | ATCC 25922 | – | – | – | 6.25 µM |
| CC(C)[C@H](NC(=O)C(NC(=O)CC[C@H](N)C(=O)O)C(O)C(N)=O)C(=O)N(C)CC(=O)N[C@H](Cc1c[nH]c2ccc([N+](=O)[O-])cc12)C(=O)NC[C@@H]1NC(=O)[C@@H](Cc2c[nH]c3ccc([N+](=O)[O-])cc23)NC1=O (stereo partly shown) | – | – | MG1655 | 18 h | 37 °C | – | 100 µM |
| CC[C@H](C)[C@H](NC(=O)CNC(=O)[C@@H](NC(=O)CNC(=O)[C@@H](NC(=O)CNC(=O)[C@@H](NC(=O)[C@@H](NC(=O)[C@H](CCC(N)=O)NC(=O)[C@H](CCC(=O)O)NC(=O)[C@@H](NC(=O)[C@H](CC(C)C)NC(=O)[C@H](CCCNC(=N)N)NC(=O)[C@H](Cc1ccccc1)NC(=O)[C@@H](NC(=O)[C@H](CC(N)=O)NC(=O)[C@H](CCCCN)NC(=O)CNC(=O)[C@H](CCSC)NC(=O)[C@H](CCCCN)NC(=O)CNC(=O)[C@H](CC(C)C)NC(=O)[C@H](CCCCN)NC(=O)[C@H](CCCCN)NC(=O)CNC(=O)[C@H](Cc1ccccc1)NC(=O)[C@H](CCCCN)NC(=O)[C@H](CCCCN)NC(=O)[C@H](CC(C)C)NC(=O)[C@H](Cc1c[nH]c2ccccc12)NC(=O)CN)C(C)C)C(C)C)C(C)C)C(C)C)C(C)C)C(C)C)C(=O)N[C@@H](CC(N)=O)C(=O)N[C@@H](C)C(=O)N[C@@H](CC(C)C)C(=O)N[C@@H](CO)C(=O)O | – | broth microdilution | K88 | – | – | – | 0.64 log10 µg/mL |
| CC1(C)[C@H](NC(=O)/C(=N\OCCN)c2nsc(N)n2)C(=O)N1OS(=O)(=O)O | – | agar dilution | CDC 1001728, NDM-1 | – | – | – | 64 µg/mL |
| O=C(O)c1ncsc1NS(=O)(=O)c1cccnc1 | – | – | NDM-1 producing | – | – | compound alone | > 2000 µM |
| CC(C)C[C@H](NC(=O)[C@@H](NC(=O)[C@H](CCCCN)NC(=O)[C@H](CCCCN)NC(=O)[C@H](CC(C)C)NC(=O)[C@H](Cc1c[nH]c2ccccc12)NC(=O)[C@H](CCCCN)NC(=O)[C@H](Cc1c[nH]c2ccccc12)NC(=O)[C@H](CC(C)C)NC(=O)[C@H](CCCCN)NC(=O)[C@H](CCCCN)NC(=O)[C@@H](N)C(C)C)C(C)C)C(N)=O | – | – | – | 24 h | 37 °C | Mueller-Hinton broth, FeCl3 4 µM | 16 µM |
| CC[C@H](C)[C@H](NC(=O)[C@@H](CCCNC(=N)N)NC(=O)[C@H](CCCNC(=N)N)NC(=O)[C@H](Cc1ccccc1)NC(=O)[C@H](Cc1c[nH]c2ccccc12)NC(=O)[C@H](CCCNC(=N)N)NC(=O)[C@@H]1CCCN1C(=O)[C@H](CCCNC(=N)N)NC(=O)[C@@H]1CCCN1C(=O)[C@H](CC(C)C)NC(=O)[C@H](Cc1ccc(O)cc1)NC(=O)[C@@H]1CCCN1C(=O)[C@@H]1CCCN1C(=O)[C@H](CCCCN)NC(=O)[C@H](CC(=O)O)NC(=O)[C@@H](N)C(C)C)C(=O)N[C@@H](Cc1ccc(O)cc1)C(=O)N[C@@H](CC(N)=O)C(=O)N[C@H](CCCNC(=N)N)C(N)=O | – | broth microdilution | ATCC 25922 | 18 h | 37 °C | 25% MHB2 | 16 µg/mL |
| CO[C@@H](C(N)=O)[C@H](NC(=O)c1ccc(NC(=O)[C@@H](N)Cc2ccc(O)cc2)cc1)C(=O)Nc1ccc(C(=O)Nc2ccc(C(=O)Nc3ccc(C(=O)O)cc3)c(O)c2OC(C)C)cc1 | – | – | pentapeptide repeat protein clone | 16 h | 37 °C | – | > 8 µg/mL |
| CCCCCCCC(=O)N[C@@H](CCN)C(=O)N[C@H](C(=O)N[C@@H](CCN)C(=O)N[C@H]1CCNC(=O)[C@H]([C@@H](C)O)NC(=O)[C@H](CCN)NC(=O)[C@H](CCN)NC(=O)[C@H](CC(C)C)NC(=O)[C@@H](Cc2ccccc2)NC(=O)[C@H](CCN)NC1=O)[C@@H](C)O | – | broth microdilution | mcr-1, colistin-resistant | – | – | – | 2 µg/mL |
| CC(C)Oc1ccc(B(O)O)c(F)n1 | bacterial growth | – | AmpC-overproducing clinical isolate | – | – | without cefotaxime | 1020 µg/mL |
| CC[C@H](C)[C@H](NC(=O)[C@@H](CCCNC(=N)N)NC(=O)[C@H](CCCNC(=N)N)NC(=O)[C@@H]1CCCN1C(=O)[C@@H]1CCCN1C(=O)[C@H](Cc1c[nH]cn1)NC(=O)[C@@H]1CCCN1C(=O)[C@H](CCCNC(=N)N)NC(=O)[C@@H]1CCCN1C(=O)[C@H](CC(C)C)NC(=O)[C@H](Cc1ccc(O)cc1)NC(=O)[C@@H]1CCCN1C(=O)[C@@H]1CCCN1C(=O)[C@H](CCCCN)NC(=O)[C@H](CC(=O)O)NC(=O)[C@@H](N)C(C)C)C(=O)N[C@@H](Cc1ccc(O)cc1)C(=O)N[C@@H](CC(N)=O)C(=O)N[C@H](CCCNC(=N)N)C(N)=O | – | broth microdilution | MC4100 | 18 h | 37 °C | 25% MHB2 | 8 µg/mL |
| CC1(C)S[C@@H]2[C@H](NC(=O)[C@H](NC(=O)C3=C(O)C(c4ccccc4F)NC3=O)c3ccccc3)C(=O)N2[C@H]1C(=O)O (stereo partly shown) | – | broth microdilution | ATCC 35218, low-level TEM-1 | – | – | no clavulanic acid | > 200 µg/mL |
| CC[C@H](C)[C@H](NC(=O)[C@@H](CCCNC(=N)N)NC(=O)[C@H](CCCNC(=N)N)NC(=O)[C@H](C)NC(=O)[C@H](Cc1c[nH]c2ccccc12)NC(=O)[C@H](CCCNC(=N)N)NC(=O)[C@@H]1CCCN1C(=O)[C@H](CCCNC(=N)N)NC(=O)[C@@H]1CCCN1C(=O)[C@H](CC(C)C)NC(=O)[C@H](Cc1ccc(O)cc1)NC(=O)[C@@H]1CCCN1C(=O)[C@@H]1CCCN1C(=O)[C@H](CCCCN)NC(=O)[C@H](CC(=O)O)NC(=O)[C@@H](N)C(C)C)C(=O)N[C@@H](Cc1ccc(O)cc1)C(=O)N[C@@H](CC(N)=O)C(=O)N[C@H](CCCNC(=N)N)C(N)=O | – | broth microdilution | ATCC 25922 | 18 h | 37 °C | 25% MHB2 | 8 µg/mL |
| CSCC[C@H](NC=O)C(=O)N[C@@H](CCCNC(=N)N)C(=O)N[C@H](C(=O)NCC(=O)N[C@@H](CC(N)=O)C(=O)N[C@@H](C)C(=O)N[C@@H](CC(N)=O)C(=O)O)[C@@H](C)O | – | broth dilution | K12 MG1655 wild type | – | – | – | > 200 µM |

Excerpt of the above:
| SMILES | read-out | technique | strain | time | temperature | notes | MIC |
| --- | --- | --- | --- | --- | --- | --- | --- |
| CC(C)Oc1c(NC(=O)c2ccc(NC(=O)[C@H](CC(N)=O)NC(=O)c3ccc(/N=N/c4ccccc4)cc3)cc2)ccc(C(=O)N/N=C/c2ccc(C(=O)O)cc2)c1O | – | – | BW25113 | – | – | dark ground state | 0.4 µg/mL |
| O=C(O)c1ncsc1NS(=O)(=O)c1cccnc1 | – | – | NDM-1 producing | – | – | compound alone | > 2000 µM |
| CC[C@H](C)[C@H](NC(=O)[C@@H](CCCNC(=N)N)NC(=O)[C@H](CCCNC(=N)N)NC(=O)[C@H](Cc1ccccc1)NC(=O)[C@H](Cc1c[nH]c2ccccc12)NC(=O)[C@H](CCCNC(=N)N)NC(=O)[C@@H]1CCCN1C(=O)[C@H](CCCNC(=N)N)NC(=O)[C@@H]1CCCN1C(=O)[C@H](CC(C)C)NC(=O)[C@H](Cc1ccc(O)cc1)NC(=O)[C@@H]1CCCN1C(=O)[C@@H]1CCCN1C(=O)[C@H](CCCCN)NC(=O)[C@H](CC(=O)O)NC(=O)[C@@H](N)C(C)C)C(=O)N[C@@H](Cc1ccc(O)cc1)C(=O)N[C@@H](CC(N)=O)C(=O)N[C@H](CCCNC(=N)N)C(N)=O | – | broth microdilution | ATCC 25922 | 18 h | 37 °C | 25% MHB2 | 16 µg/mL |
